Measured values gathered from unrelated publications.
Each line is one published result; not all experiments were run side by side. Converted amounts (≈) assume the structure as drawn.

By UniProt entry, the sequences of proteins in these tests, tags left out.
UniProt P18825, whole entry: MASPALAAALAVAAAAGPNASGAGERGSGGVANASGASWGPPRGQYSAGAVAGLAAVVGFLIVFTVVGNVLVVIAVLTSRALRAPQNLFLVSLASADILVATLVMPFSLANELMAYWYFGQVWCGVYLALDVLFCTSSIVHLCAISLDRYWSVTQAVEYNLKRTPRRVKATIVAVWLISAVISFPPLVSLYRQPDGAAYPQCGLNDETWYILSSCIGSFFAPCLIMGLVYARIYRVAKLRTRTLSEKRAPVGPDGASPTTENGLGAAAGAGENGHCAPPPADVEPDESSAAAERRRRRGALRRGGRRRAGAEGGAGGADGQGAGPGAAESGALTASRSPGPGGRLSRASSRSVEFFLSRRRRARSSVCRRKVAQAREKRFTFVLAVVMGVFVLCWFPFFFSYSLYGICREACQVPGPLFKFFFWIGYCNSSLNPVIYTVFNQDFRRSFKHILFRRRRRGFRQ
UniProt Q13464, whole entry: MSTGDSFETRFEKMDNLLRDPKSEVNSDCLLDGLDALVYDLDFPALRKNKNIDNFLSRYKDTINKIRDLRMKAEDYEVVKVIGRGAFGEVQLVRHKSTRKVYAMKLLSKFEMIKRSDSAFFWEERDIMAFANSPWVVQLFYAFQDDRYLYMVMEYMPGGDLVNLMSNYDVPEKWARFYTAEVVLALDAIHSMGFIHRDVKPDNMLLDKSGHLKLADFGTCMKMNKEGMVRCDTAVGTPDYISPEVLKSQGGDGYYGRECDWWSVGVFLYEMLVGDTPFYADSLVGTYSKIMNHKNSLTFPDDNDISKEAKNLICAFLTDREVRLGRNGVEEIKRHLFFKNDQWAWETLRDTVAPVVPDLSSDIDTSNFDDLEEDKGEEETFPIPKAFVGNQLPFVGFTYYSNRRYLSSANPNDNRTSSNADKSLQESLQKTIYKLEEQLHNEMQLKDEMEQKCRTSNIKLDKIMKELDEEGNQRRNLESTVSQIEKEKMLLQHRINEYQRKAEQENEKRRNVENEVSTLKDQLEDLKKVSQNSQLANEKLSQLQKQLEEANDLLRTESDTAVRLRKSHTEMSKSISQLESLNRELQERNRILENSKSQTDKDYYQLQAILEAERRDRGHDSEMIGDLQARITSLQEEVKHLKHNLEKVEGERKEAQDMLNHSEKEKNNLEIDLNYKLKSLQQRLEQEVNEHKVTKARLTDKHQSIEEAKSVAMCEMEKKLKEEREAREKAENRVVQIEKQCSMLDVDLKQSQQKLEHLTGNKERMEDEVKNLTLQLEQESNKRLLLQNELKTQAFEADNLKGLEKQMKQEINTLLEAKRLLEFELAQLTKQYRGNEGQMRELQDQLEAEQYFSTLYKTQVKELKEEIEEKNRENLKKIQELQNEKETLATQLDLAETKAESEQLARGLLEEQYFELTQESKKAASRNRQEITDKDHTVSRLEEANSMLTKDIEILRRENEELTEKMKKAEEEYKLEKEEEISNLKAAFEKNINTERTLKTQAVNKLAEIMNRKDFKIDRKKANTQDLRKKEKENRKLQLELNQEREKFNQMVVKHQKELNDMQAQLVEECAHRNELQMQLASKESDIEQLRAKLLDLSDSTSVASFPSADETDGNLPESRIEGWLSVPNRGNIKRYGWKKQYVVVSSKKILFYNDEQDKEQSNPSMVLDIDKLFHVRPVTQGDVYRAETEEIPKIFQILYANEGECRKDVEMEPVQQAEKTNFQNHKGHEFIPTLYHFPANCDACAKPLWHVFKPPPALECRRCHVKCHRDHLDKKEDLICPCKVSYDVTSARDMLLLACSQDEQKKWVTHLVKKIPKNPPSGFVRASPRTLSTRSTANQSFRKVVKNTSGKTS

Structure (SMILES) | tested on | test | system | setting | how to read | measurement | result
CCCN1CCN(c2ccc3c(c2)C2CC3CCN2C(=O)OCc2ccccc2)CC1 (stereo not drawn) | Alpha-2C adrenergic receptor (ADRA2C, Homo sapiens, UniProt P18825) | binding, radioligand binding |  |  |  | Ki | 0.539 µM
CC#C/C(=N\OC[C@H]1COCCN1)c1ccc2ncnc(Nc3ccc(OCc4cccc(F)c4)c(Cl)c3)c2c1 | Rho-associated protein kinase 1 (ROCK1, Homo sapiens, UniProt Q13464) | kinase activity |  | 10 µM |  | inhibition | -8.2%
CCOC(=O)OCOc1c(-c2ccc(Oc3ccc(OC(F)(F)F)cc3)cc2)c(C)nc2cc(OC)c(Cl)cc12 | Plasmodium yoelii |  | mouse | oral |  | single-dose cure dose | 3 mg/kg
CC(C)Cc1nnc2c(C(=O)NC3c4ccccc4-c4ccccc43)cccn12 | Escherichia coli | broth microdilution | wild type |  |  | MIC | > 64 µg/mL
CCc1nc(N)nc(N)c1C#CCc1cc(OC)cc(-c2ccc(C(=O)O)cc2)c1 | Staphylococcus aureus |  | MRSA isolate HH 1184 |  |  | MIC | 5 µg/mL (≈ 12.4 µM)
COc1ccc(Nc2cc(C)c3cc(NC(=O)c4ccc(N(C)C)cc4)ccc3n2)cc1 | Zika virus | viral replication | PF-251013-18 |  |  | IC50 | > 10 µM
O=C(Cn1c(-c2ccccn2)nc2ccccc21)Nc1ccc2ccccc2c1 | Helicobacter pylori | cell growth, colony count | G27 | 200 µM, 24 h, culture exiting stationary phase |  | viable cells remaining | 23 % CFU
CCCc1nn2c(=O)cc(CSc3nc(-c4ccc(C)cc4)nc4cc(=O)[nH]n34)nc2s1 | Zika virus | viral replication | PF-251013-18 |  |  | IC50 | > 10 µM
CSc1nc(Cl)cc(Sc2nnc(-c3cc(C(F)(F)F)cc(C(F)(F)F)c3)[nH]2)n1 | Escherichia coli |  | MC4100 | no additive |  | MIC | > 590 µg/mL
CCN1CCN(Cc2ccc(NC(=O)c3ccc(C)c(/C=C/c4cnc5[nH]ccc5c4OC)c3)cc2C(F)(F)F)CC1 | ETV6-PDGFRB fusion | kinase-CDC37 interaction, cell-based kinome screen |  | 5 µM | relative to: vehicle | log2 fold change | -0.51
Cn1c([N+](=O)[O-])cnc1COc1ccc2nc3ccc(=O)cc-3oc2c1 | Mycobacterium tuberculosis |  | mc2 6206 clofazimine-resistant fbiC mutant | 7 days |  | MIC90 | > 256 µM
CCCCCCC1c2ccc(O)cc2Oc2cc(O)ccc21 | Klebsiella pneumoniae |  | BARB 105 | added: NAB7061 4 µg/mL |  | MIC | > 74.6 µg/mL

Excerpt of the above:
Structure (SMILES) | tested on | test | system | setting | how to read | measurement | result
CCCc1nn2c(=O)cc(CSc3nc(-c4ccc(C)cc4)nc4cc(=O)[nH]n34)nc2s1 | Zika virus | viral replication | PF-251013-18 |  |  | IC50 | > 10 µM
CCCCCCC1c2ccc(O)cc2Oc2cc(O)ccc21 | Klebsiella pneumoniae |  | BARB 105 | added: NAB7061 4 µg/mL |  | MIC | > 74.6 µg/mL
